Experimental data gathered from unrelated publications.
A part holds a random share of what one study measured. Positions count from the first letter of the parent shown.

Series 1 — target: CCND2, cyclin fold, Cln2 fusion (human); method: yeast growth competition, sequencing; medium: yeast; notes: weak parent motif; reference: not given; direction: higher = stronger binding
Parent: CDKN1A docking peptide (human); SKACRRLFGPVDS
| Change | normalised enrichment score |
| --- | --- |
| L7N | 0.0505 |
| D12M | 0.473 |
| G9F | 1.02 |
| R6E | 0.45 |
| D12T | 0.254 |
| G9C | 0.492 |
| V11D | 1.72 |
| R5K | -0.483 |
| S13A | 0.761 |
| C4F | -0.746 |
| R5D | -0.164 |
| P10M | 0.232 |
| A3D | 0.0414 |
| R5T | 0.211 |
| P10H | -0.0542 |

Series 2 — method: RNA Bind-n-Seq; form: RNA; medium: in vitro; concentration: 365 nM; reference: no-protein control; direction: higher = stronger binding
Target: RNA binding protein fox-1 homolog 2, RRM domain, GST-SBP tag (RBFOX2, Homo sapiens, UniProt O43251-10, residues 100-194)
Notes: natural RNA segment, single round, ends assumed
Construct (chain): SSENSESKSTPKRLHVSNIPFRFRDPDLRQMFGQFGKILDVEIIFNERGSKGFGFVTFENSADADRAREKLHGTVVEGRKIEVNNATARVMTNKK
| Oligonucleotide | RBNS enrichment (R) |
| --- | --- |
| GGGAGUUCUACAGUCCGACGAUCUUCUGUAAGCACUGACCUGGGUAAGGCAGAGGGUAGGAGUCACCAUCCCUCCUCUGCCAAUAUCGCUACAACUCCUGCCUCCAGCACUAGGCUAUAACUUUGGAGUGAUAUGGAAUUCUCGGGUGCCAA | 0.326 |
| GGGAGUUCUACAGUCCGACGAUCAAUGGCGUCUGCUCUGGUGGCUUAAGUGAGCAGAACAGGUAGUAUUACACCACCGGCCCCCUCCCCCCAGACUCUUUUUUUGAGUGACAGCUUUCUGGGAUGUCACAGUCUGGAAUUCUCGGGUGCCAA | 0.345 |
| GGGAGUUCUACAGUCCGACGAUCAUUAAGCCUUGUGCAGGAUGAUGGAUUUGACUUACUAAUGUACUGUCACAGACAAAUAUGGGUAGUUUUGUUUAAAUAGGUAAGCAAAAUAUUAUACUUUAUAGCAGUGGUGGAAUUCUCGGGUGCCAA | 0.279 |
| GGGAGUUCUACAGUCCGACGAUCCAUCCUUUCUUAUUCAUAGCGCACCACCCAAAGUCUGUGUGUUUGUGACAGUCUGUGGGGACUGUCCCAGUGCCUUUGUGAUGACCUAAACUGCACUGAGUCUCUUGCCAUGGAAUUCUCGGGUGCCAA | 0.982 |
| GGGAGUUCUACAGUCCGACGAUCAGGGCUACCACAUUGACCCAGAUGGUAUCUCCUCUCACCAUUCAGACAUCCAUAAGGAAUGCCAAAUGCUGUAUUGAAUAGUUCUCCUGUGUGACUUUCUAGAGAAGCCAUGGAAUUCUCGGGUGCCAA | 0.569 |
| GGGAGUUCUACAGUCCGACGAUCUUAUUACCAAAAAUGACAGAAUAUUCUUGAUCAAAUGUCUAGAUAUAUUUUUAAUAUUUGGGGCAUGAGUUGUCCCUGUUUGAGAGUUCCCAUUACUAAUGUAGAAAUGUUGGAAUUCUCGGGUGCCAA | 0.377 |
| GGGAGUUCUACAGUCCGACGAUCUCAGAGAAUCUAUGAAUAAUGGAAGCAUUAAUUGUUUUGAACAUGUAAAUAUAAAUCUGUCAGCCACUACAGCCAUCAAAAGAGAGCAUCUGGAAGAACAGCCAGCUUGGUGGAAUUCUCGGGUGCCAA | 0.856 |
| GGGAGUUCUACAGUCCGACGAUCCAGUGGUGGCGUGAGCAGUAGGUGAAGUGGUUGGUGAAGGAUGAGCCUCGCUCGUGAACUUCCUGUGGUAACACUUGGGAGCCUGGCCUUUUCCCAGUAUUUCCUGAAUUUGGAAUUCUCGGGUGCCAA | 1.17 |

Series 3 — method: aptamer microarray, sandwich; form: DNA with 2'F-ANA; medium: in vitro; concentration: 200 nM; with: Cy3 exosite-II aptamer, 400 nM; direction: higher = stronger binding; oligonucleotide: GGTTGGTGTGGTTGG
Target: Prothrombin, mature alpha-thrombin (F2, Homo sapiens, UniProt P00734)
Notes: whole 15-mer aptamer, many near background
| Modification | mean fluorescence intensity [a.u.] |
| --- | --- |
| 2'F-ANA at 4 5 8 10 14 | 41.9 |
| 2'F-ANA at 2 5 6 8 11 12 13 14 | 48.2 |
| 2'F-ANA at 1 2 4 7 10 11 13 | 48.4 |
| 2'F-ANA at 3 9 10 12 13 14 | 407 |
| 2'F-ANA at 4 5 6 8 10 12 13 14 | 45.6 |
| 2'F-ANA at 1 5 6 7 8 13 15 | 48.2 |
| 2'F-ANA at 3 4 7 9 11 14 | 340 |
| 2'F-ANA at 2 4 6 9 10 11 14 | 58.5 |
| 2'F-ANA at 1 4 9 10 11 | 60.9 |
| 2'F-ANA at 1 4 6 7 10 11 12 13 15 | 49.9 |
| 2'F-ANA at 3 4 7 12 13 14 15 | 430 |
| 2'F-ANA at 2 3 7 8 10 11 12 13 | 462 |
| 2'F-ANA at 2 5 6 7 8 9 10 14 | 58.6 |
| 2'F-ANA at 1 2 3 6 7 8 9 10 12 14 15 | 80.8 |
| 2'F-ANA at 1 2 3 4 5 6 7 9 10 12 13 14 | 46.1 |
| 2'F-ANA at 2 4 5 7 8 9 13 14 | 78.6 |
| 2'F-ANA at 1 2 5 | 54.2 |
| 2'F-ANA at 1 5 6 7 8 11 13 14 15 | 46.5 |
| 2'F-ANA at 1 3 9 11 12 13 | 425 |
| 2'F-ANA at 4 5 11 13 14 15 | 46.7 |
| 2'F-ANA at 1 2 3 7 8 14 | 86.7 |
| 2'F-ANA at 2 5 8 9 14 15 | 45 |
| 2'F-ANA at 1 5 7 10 11 12 14 15 | 122 |
| 2'F-ANA at 4 5 6 | 83.7 |

Series 4 — method: RNA Bind-n-Seq; form: RNA; medium: in vitro; concentration: 20 nM; notes: 6-mer, flanks averaged, single round; with: 150 mM LiCl; reference: input library; direction: higher = stronger binding
Target: TAR DNA-binding protein 43, full length, His tag (TARDBP, Homo sapiens, UniProt Q13148, residues 1-414)
| Oligonucleotide | 6-mer enrichment (R) |
| --- | --- |
| AAGAUU | 0.811 |
| UUCCGU | 0.927 |
| CCGCUG | 0.935 |
| UUGUCC | 1.02 |
| CCCGGG | 1.04 |
| AAGUCC | 0.846 |
| UGUAUA | 1.09 |
| GGGUCG | 1.18 |
| GCUCCA | 0.927 |
| CAUGAG | 0.943 |
| AGAGGG | 1.22 |
| UUAAUA | 1.01 |
| CCUUCC | 0.975 |
| AGGGUG | 1.37 |
| CCUGCC | 1 |
| CUCAAG | 0.811 |
| CUGGCG | 0.974 |
| GCGGGU | 1.17 |
| UAGUAA | 0.901 |
| GAAAGA | 0.889 |
| GGCCAU | 0.952 |
| UGUGAU | 1.22 |
